Earlier results that unrelated publications cite.
Compare with care: the assays were run in different laboratories.

SMILES = N=C(N)NCCC[C@H](NC(=O)[C@H](Cc1c[nH]c2ccccc12)NC(=O)[C@H](CCC(N)=O)NC(=O)[C@H](Cc1c[nH]c2ccccc12)NC(=O)[C@H](CCCNC(=N)N)NC(=O)[C@@H](N)CCCNC(=N)N)C(=O)NCCCC[C@H](NC(=O)[C@H](CCCNC(=N)N)NC(=O)[C@H](Cc1c[nH]c2ccccc12)NC(=O)[C@H](CCC(N)=O)NC(=O)[C@H](Cc1c[nH]c2ccccc12)NC(=O)[C@H](CCCNC(=N)N)NC(=O)[C@@H](N)CCCNC(=N)N)C(=O)NCCCCCC(=O)N[C@@H](CSSC[C@H](NC(=O)CCCCCNC(=O)[C@H](CCCCNC(=O)[C@H](CCCNC(=N)N)NC(=O)[C@H](Cc1c[nH]c2ccccc12)NC(=O)[C@H](CCC(N)=O)NC(=O)[C@H](Cc1c[nH]c2ccccc12)NC(=O)[C@H](CCCNC(=N)N)NC(=O)[C@@H](N)CCCNC(=N)N)NC(=O)[C@H](CCCNC(=N)N)NC(=O)[C@H](Cc1c[nH]c2ccccc12)NC(=O)[C@H](CCC(N)=O)NC(=O)[C@H](Cc1c[nH]c2ccccc12)NC(=O)[C@H](CCCNC(=N)N)NC(=O)[C@@H](N)CCCNC(=N)N)C(N)=O)C(N)=O; organism = Escherichia coli; method = broth microdilution; strain = ATCC 25922; MIC = 22 µM
SMILES = CC(=O)N1CCc2cc(S(=O)(=O)N3CCN(c4cccc(C(F)(F)F)c4)CC3)ccc21; organism = Klebsiella pneumoniae; strain = 10031; MIC = > 64 µg/mL
SMILES = F[P-](F)(F)(F)(F)F.O=C(CCC(=O)[c-]1cccc1)NCCN(CC(=O)Nc1ccc(C#CCN(Cc2ccccn2)Cc2ccccn2)cc1)C(=O)CCc1cn(C[c-]2cccc2)nn1.[C-]#[O+].[C-]#[O+].[C-]#[O+].[C-]#[O+].[C-]#[O+].[C-]#[O+].[Mn+].[Re+].[Ru+2].c1cc[cH-]c1; organism = Bacillus subtilis, Staphylococcus aureus; strain = incl. MRSA; MIC = 4 to 32 µg/mL
SMILES = c1ccc(CSc2nc3ccccc3cc2CNCCC2CCN(C3CCCC3)CC2)cc1; organism = Pseudomonas aeruginosa; strain = multidrug-resistant; MIC = 16 to 64 µg/mL
SMILES = N=C(N)NCCC[C@H](NC(=O)[C@H](Cc1c[nH]c2ccccc12)NC(=O)[C@H](CCC(N)=O)NC(=O)[C@H](Cc1c[nH]c2ccccc12)NC(=O)[C@H](CCCNC(=N)N)NC(=O)[C@@H](N)CCCNC(=N)N)C(=O)NCCCC[C@H](NC(=O)[C@H](CCCNC(=N)N)NC(=O)[C@H](Cc1c[nH]c2ccccc12)NC(=O)[C@H](CCC(N)=O)NC(=O)[C@H](Cc1c[nH]c2ccccc12)NC(=O)[C@H](CCCNC(=N)N)NC(=O)[C@@H](N)CCCNC(=N)N)C(=O)NCCCCCC(N)=O; organism = Escherichia coli; method = broth microdilution; strain = ATCC 11775; MIC = 22 µM
SMILES = CCCC/C=C/C(=O)N[C@@H](Cc1cc(F)cc(F)c1)C(=O)N[C@@H](COC(=O)[C@@H]1CCCN1C(C)=O)C(=O)OC; organism = Bacillus subtilis; MIC = 32 µg/mL
SMILES = CSCC[C@H](NC(=O)[C@H](CCCNC(=N)N)NC(=O)[C@H](Cc1c[nH]c2ccccc12)NC(=O)[C@H](CCC(N)=O)NC(=O)[C@H](Cc1c[nH]c2ccccc12)NC(=O)[C@H](CCCNC(=N)N)NC(=O)[C@H](CCCNC(=N)N)NC(=O)[C@H](C)NC(=O)[C@H](CCCCN)NC(=O)[C@@H](N)Cc1ccccc1)C(=O)N[C@@H](CCCCN)C(=O)N[C@@H](CCCCN)C(=O)N[C@@H](CC(C)C)C(=O)NCC(=O)N[C@@H](C)C(=O)NCCCC[C@H](NC(=O)[C@H](C)NC(=O)CNC(=O)[C@H](CC(C)C)NC(=O)[C@H](CCCCN)NC(=O)[C@H](CCCCN)NC(=O)[C@H](CCSC)NC(=O)[C@H](CCCNC(=N)N)NC(=O)[C@H](Cc1c[nH]c2ccccc12)NC(=O)[C@H](CCC(N)=O)NC(=O)[C@H](Cc1c[nH]c2ccccc12)NC(=O)[C@H](CCCNC(=N)N)NC(=O)[C@H](CCCNC(=N)N)NC(=O)[C@H](C)NC(=O)[C@H](CCCCN)NC(=O)[C@@H](N)Cc1ccccc1)C(=O)NCCCCCC(N)=O; organism = Escherichia coli; method = broth microdilution; strain = ATCC 25922; MIC = 24 µM
SMILES = Cc1ccc(/N=N/c2c(C)c(C(=O)Nc3ccccc3)c(N)n(-c3ccccc3)c2=O)cc1; organism = Streptococcus pneumoniae; MIC = 1.95 µg/mL
SMILES = O=c1cc(-c2ccccc2)c2cc(Br)ccc2n1Cc1nnc2n1N=C(c1ccccc1)CS2; organism = Pseudomonas aeruginosa; MIC = 4 µg/mL
SMILES = N#Cc1c(-c2ccco2)c(C#N)c(=O)n(-c2cccc(C(F)(F)F)c2)c1N; organism = Candida albicans; MIC = 1.95 µg/mL
SMILES = CSCC[C@H](NC(=O)[C@H](CCCNC(=N)N)NC(=O)[C@H](Cc1c[nH]c2ccccc12)NC(=O)[C@H](CCC(N)=O)NC(=O)[C@H](Cc1c[nH]c2ccccc12)NC(=O)[C@H](CCCNC(=N)N)NC(=O)[C@@H](N)CCCNC(=N)N)C(=O)N[C@@H](CCCCN)C(=O)N[C@@H](CCCCN)C(=O)N[C@@H](CC(C)C)C(=O)NCC(=O)NCCCC[C@H](NC(=O)CNC(=O)[C@H](CC(C)C)NC(=O)[C@H](CCCCN)NC(=O)[C@H](CCCCN)NC(=O)[C@H](CCSC)NC(=O)[C@H](CCCNC(=N)N)NC(=O)[C@H](Cc1c[nH]c2ccccc12)NC(=O)[C@H](CCC(N)=O)NC(=O)[C@H](Cc1c[nH]c2ccccc12)NC(=O)[C@H](CCCNC(=N)N)NC(=O)[C@@H](N)CCCNC(=N)N)C(=O)NCCCCCC(=O)N[C@@H](CSSC[C@H](NC(=O)CCCCCNC(=O)[C@H](CCCCNC(=O)CNC(=O)[C@H](CC(C)C)NC(=O)[C@H](CCCCN)NC(=O)[C@H](CCCCN)NC(=O)[C@H](CCSC)NC(=O)[C@H](CCCNC(=N)N)NC(=O)[C@H](Cc1c[nH]c2ccccc12)NC(=O)[C@H](CCC(N)=O)NC(=O)[C@H](Cc1c[nH]c2ccccc12)NC(=O)[C@H](CCCNC(=N)N)NC(=O)[C@@H](N)CCCNC(=N)N)NC(=O)CNC(=O)[C@H](CC(C)C)NC(=O)[C@H](CCCCN)NC(=O)[C@H](CCCCN)NC(=O)[C@H](CCSC)NC(=O)[C@H](CCCNC(=N)N)NC(=O)[C@H](Cc1c[nH]c2ccccc12)NC(=O)[C@H](CCC(N)=O)NC(=O)[C@H](Cc1c[nH]c2ccccc12)NC(=O)[C@H](CCCNC(=N)N)NC(=O)[C@@H](N)CCCNC(=N)N)C(N)=O)C(N)=O; organism = Escherichia coli; method = broth microdilution; strain = ATCC 11775; MIC = 15 µM
SMILES = CCCCCCc1cc(-c2cc(Cl)sc2Cl)[nH]c(=O)c1C#N; organism = Bacillus subtilis; MIC = 78 µg/mL
SMILES = Cc1cccc2nc3c(O)c(Br)c(Cl)c(Br)c3nc12; organism = Staphylococcus aureus; strain = MRSA; MIC = 0.08 µM

Some of these lines once more:
SMILES = O=c1cc(-c2ccccc2)c2cc(Br)ccc2n1Cc1nnc2n1N=C(c1ccccc1)CS2; organism = Pseudomonas aeruginosa; MIC = 4 µg/mL
